Experimental data collected from several papers.
Several values in a cell are separate wells, animals, samples, runs or records. ± marks the error that the study gave.

Structure (SMILES) | cell line | test | conditions | EC50
CC(C)C[C@H](NC(=O)[C@H](CO)NC(=O)[C@H](Cc1ccc(O)cc1)NC(=O)CNC(=O)[C@H](CCCNC(=N)N)NC(=O)[C@H](Cc1ccc(O)cc1)NC(=O)[C@@H](N)CC(N)=O)C(=O)NCC(=O)N[C@@H](CC(N)=O)C(N)=O | 2D12.1 T cell hybridoma | T cell activation, agonist, refers to: IL-2 | 24 h, NOD mouse spleen cells | > 10000 nM
CCCCCCCCCCCCCCCC(=O)N[C@@H](CCC(=O)NCCCC[C@H](NC(=O)[C@H](CC(=O)O)NC(=O)[C@H](CO)NC(=O)[C@@H](NC(=O)[C@H](Cc1ccccc1)NC(=O)[C@@H](NC(=O)CNC(=O)[C@H](CCC(N)=O)NC(=O)[C@H](CO)NC(=O)[C@@H](N)Cc1c[nH]cn1)[C@@H](C)O)[C@@H](C)O)C(=O)N[C@@H](CO)C(=O)N[C@@H](CCC(=O)O)C(=O)N[C@@H](Cc1ccc(O)cc1)C(=O)N[C@@H](CC(C)C)C(=O)N[C@@H](CC(=O)O)C(=O)N[C@@H](CO)C(=O)N[C@@H](CCC(=O)O)C(=O)N[C@@H](CCCNC(=N)N)C(=O)N[C@@H](C)C(=O)N[C@@H](CCCNC(=N)N)C(=O)N[C@@H](CC(=O)O)C(=O)N[C@@H](Cc1ccccc1)C(=O)N[C@H](C(=O)N[C@@H](C)C(=O)N[C@@H](Cc1c[nH]c2ccccc12)C(=O)N[C@@H](CC(C)C)C(=O)N[C@@H](CCC(=O)O)C(=O)N[C@@H](C)C(=O)NCC(=O)NCC(=O)O)C(C)C)C(=O)O | pooled primary human hepatocytes | cAMP accumulation, agonist | added: 0.1% BSA | 2.45 ± 0.151 nM
FC(F)(F)c1ccnc(-c2cc(C(F)(F)F)ccn2)c1.FC(F)(F)c1ccnc(-c2cc(C(F)(F)F)ccn2)c1.[Cl-].[Cl-].[Ru+2].c1csc(-c2ccc(-c3ccc(-c4ccc(-c5nc6c7cccnc7c7ncccc7c6[nH]5)s4)s3)s2)c1 | SK-MEL-28 | cell viability, resazurin | hypoxia 1% O2, added: red light | < 10000 nM
CC(=O)OC[C@H]1O[C@@H]([Se][Se][C@@H]2O[C@H](COC(C)=O)[C@H](OC(C)=O)[C@H](OC(C)=O)[C@H]2OC(C)=O)[C@H](OC(C)=O)[C@@H](OC(C)=O)[C@H]1OC(C)=O | J774 mouse macrophages | viability | 24 h | 6900 ± 540 nM
CC(=O)O[C@H]1OC[C@@H]2C=C([C@@]3(C)CCCC(C)(C)C3)CC[C@H]12 | human T-lymphocyte | cell growth or viability, MTT | 48 h | 1000 to 4000 nM
FC(F)(F)c1ccnc(-c2cc(C(F)(F)F)ccn2)c1.FC(F)(F)c1ccnc(-c2cc(C(F)(F)F)ccn2)c1.[Cl-].[Cl-].[Ru+2].c1csc(-c2ccc(-c3ccc(-c4nc5c6cccnc6c6ncccc6c5[nH]4)s3)s2)c1 | SK-MEL-28 | cell viability | hypoxia 1% O2, added: green light 523 nm | 1100 nM and ~1000 nM
Cc1cc2cc(O)c(O)cc2c(O)c1-c1c(C)cc2cc(O)c(O)cc2c1O | H460 | ATP-lite viability | 72 h | 10100 nM
CC(C)C[C@H](NC(=O)[C@H](CO)NC(=O)[C@H](Cc1ccc(O)cc1)NC(=O)CNC(=O)[C@H](CCCNC(=N)N)NC(=O)[C@H](Cc1ccc(O)cc1)NC(=O)[C@H](CC(N)=O)NC(=O)[C@H](CC(=O)O)NC(=O)[C@@H](N)CC(C)C)C(=O)NCC(=O)N[C@@H](CC(N)=O)C(N)=O | 2D12.1 T cell hybridoma | T cell activation, agonist, refers to: IL-2 | 24 h, NOD mouse spleen cells | > 10000 nM
C=CC(=O)Nc1cc(-c2nn(C3CCN(CCNC(=O)[C@H](C)CCC45CC6CC(CC(C6)C4)C5)CC3)c3ncnc(N)c23)ccc1Oc1ccccc1 | PC9/GR4 | cell growth or viability, ATP luminescence | 72 h | 900 nM
O=C(N[C@@H](Cc1coc2ccccc12)B(O)O)[C@@H]1C[C@H]2CC[C@@H]1O2 | MM1.S | caspase 3/7 activity | 72 h | 420 nM
[Ru+2].c1ccc(-c2ccc3c(n2)c2ncccc2c2nc4cc5ccccc5cc4nc32)nc1.c1ccc(-c2ccc3c(n2)c2ncccc2c2nc4cc5ccccc5cc4nc32)nc1 | M2 murine macrophages | cell viability, MTT | 1 h, blue light 56 J/cm2 | 700 ± 200 nM
N=C(N)NCCC[C@H](N)C(=O)N1CCC[C@H]1C(=O)N[C@@H](CCCCN)C(=O)N1CCC[C@H]1C(=O)N[C@@H](CCC(N)=O)C(=O)N[C@@H](CCC(N)=O)C(=O)N[C@@H](Cc1ccccc1)C(=O)N[C@@H](Cc1ccccc1)C(=O)NCC(=O)O | LAD2 human mast cells | degranulation, activator, refers to: β-hexosaminidase | 30 min, 37 °C | 43300 nM
CSCC[C@H](NC(=O)[C@H](C)NC(=O)[C@H](C)NC(=O)[C@H](C)N)C(=O)N[C@@H](CCCCN)C(=O)N[C@@H](CCCNC(=N)N)C(=O)N[C@@H](Cc1c[nH]cn1)C(=O)NCC(=O)N[C@@H](CC(C)C)C(N)=O | 2D12.1 T cell hybridoma | T cell activation, agonist, refers to: IL-2 | 24 h, NOD mouse spleen cells | > 10000 nM
Cc1ccc2c(n1)c1nc(C)ccc1c1nc3cc4ccccc4cc3nc21.[Ru+2].c1ccc(-c2cccc(-c3ccccn3)n2)nc1.c1ccncc1 | M2 murine macrophages | cell viability, MTT | 1 h, blue light 56 J/cm2 | 550 ± 100 nM

Excerpt of the above:
Structure (SMILES) | cell line | test | conditions | EC50
O=C(N[C@@H](Cc1coc2ccccc12)B(O)O)[C@@H]1C[C@H]2CC[C@@H]1O2 | MM1.S | caspase 3/7 activity | 72 h | 420 nM
[Ru+2].c1ccc(-c2ccc3c(n2)c2ncccc2c2nc4cc5ccccc5cc4nc32)nc1.c1ccc(-c2ccc3c(n2)c2ncccc2c2nc4cc5ccccc5cc4nc32)nc1 | M2 murine macrophages | cell viability, MTT | 1 h, blue light 56 J/cm2 | 700 ± 200 nM
